Assay results collected from several papers.
Parts stem from different laboratories: compare values within a part only. Positions count from the first letter of the parent shown.

Study 1 — target: CCNA1, cyclin fold, Cln2 fusion (human); method: yeast growth competition, sequencing; medium: yeast; setting: weak parent motif; baseline: not given; direction: higher = stronger binding
Starting sequence: CDKN1B docking peptide (human); PSACRNLFGPVDH
For `H13S`, “normalised enrichment score” read 0.212.
Under “normalised enrichment score”, `N6V` is recorded as 0.36.
Under “normalised enrichment score”, `P10H` is recorded as -0.108.
For `A3Q`, “normalised enrichment score” read 0.403.
`C4I`: “normalised enrichment score” 0.36.
`P10V` — result for “normalised enrichment score”: 0.199.
Under “normalised enrichment score”, `H13L` is recorded as 0.348.
`P1N` — result for “normalised enrichment score”: 0.387.
`V11T` — result for “normalised enrichment score”: 0.269.
`N6S`: “normalised enrichment score” 0.381.
`D12C` — result for “normalised enrichment score”: 0.396.
For `P10T`, “normalised enrichment score” read 0.389.
For `R5K F8L`, “normalised enrichment score” read 0.0446.

Study 2 — method: RNA Bind-n-Seq; molecule type: RNA; medium: in vitro; tested at: 200 nM; setting: whole 134-nt RNA, ends assumed; together with: 150 mM LiCl; baseline: input library; direction: higher = stronger binding; each molecule: 7-deaza-guanosine replaces G
Target: Ras GTPase-activating protein-binding protein 1, full length (G3BP1, Homo sapiens, UniProt Q13283)
Chain of UniProt Q13283 (whole entry, looked up): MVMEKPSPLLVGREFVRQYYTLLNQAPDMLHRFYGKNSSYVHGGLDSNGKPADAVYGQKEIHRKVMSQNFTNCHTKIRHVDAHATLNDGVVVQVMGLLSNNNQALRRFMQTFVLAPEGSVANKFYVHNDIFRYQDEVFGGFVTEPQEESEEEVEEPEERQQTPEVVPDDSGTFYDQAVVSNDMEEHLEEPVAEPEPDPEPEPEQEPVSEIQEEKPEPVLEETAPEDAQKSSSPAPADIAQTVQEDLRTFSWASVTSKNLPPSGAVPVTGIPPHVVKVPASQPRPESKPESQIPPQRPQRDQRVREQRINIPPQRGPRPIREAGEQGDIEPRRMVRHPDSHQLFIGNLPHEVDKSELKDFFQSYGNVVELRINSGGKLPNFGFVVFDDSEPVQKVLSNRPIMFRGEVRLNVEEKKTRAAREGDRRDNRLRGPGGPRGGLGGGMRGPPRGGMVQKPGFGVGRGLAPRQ
`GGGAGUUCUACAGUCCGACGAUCAGUCCUGUGCUACACAUCGUAUGUACCGAAUCGGAAAAAAAGGUUUUUGGUUUUUGGAAAGUAUUAUGUUACGCCGUUCGGAUCUGCACUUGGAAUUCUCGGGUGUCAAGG` gave a log2 enrichment of -2.74.
With `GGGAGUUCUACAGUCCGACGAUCUCAAGUCCUGUGCUACACAUCGUAUGUACCGAAUCGGUGGUUUUUGGAAAAAGGAAAGUAUUAUGUUACGCCGUUCGGAUCUGCACUUCCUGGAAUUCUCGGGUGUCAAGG` the log2 enrichment was -0.247.
For `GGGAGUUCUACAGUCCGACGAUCUUCACAGCCAGCAGGCAUUGGAAUAUGGCACCAAACUCGUUGGAGGAACCACUCCAGGGAAAGGAGGCCAGACACAUCUGGGCUUACCUGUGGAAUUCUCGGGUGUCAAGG`, the log2 enrichment was -0.173.
`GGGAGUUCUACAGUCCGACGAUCUGGCCCUGGUGGCAUGCGGGGAGGAAGAGGUGGCCUCAUGGAUCGUGGUGGUCCCGGUGGAAUGUUCAAAGGUGGCCGUGGUGGAGACAGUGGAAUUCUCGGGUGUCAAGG` has a log2 enrichment of -0.146.
`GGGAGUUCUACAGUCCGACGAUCUCUGGACAUGCAGGUGGACCAGUCAGUGCCAGAGUAAGUUGUUGUUUUCUUAAAAGAAAAAAAAAAAUGUAAAAUCAUCUAACCCUAACCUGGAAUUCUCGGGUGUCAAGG` has a log2 enrichment of -0.702.
For `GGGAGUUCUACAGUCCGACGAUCCCUGUGCUACACAUCGUAUGUACCGAAUCGGGGAAAAAAAGGGGAGGGGUUUUUUUGGGGAAAGUAUUAUGUUACGCCGUUCGGAUCUGCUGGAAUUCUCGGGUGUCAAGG`, the log2 enrichment was 0.614.
For `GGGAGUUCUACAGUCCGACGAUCUAACUUUAGAGGAGGAUCUGAUGGAUAUGGCAGUGGACGUGGAUUUGGCGAUGGCUAUAAUGGGUAUGGAGGAGGACCUGGAGGUGGCAAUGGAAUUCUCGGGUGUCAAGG`, the log2 enrichment was -0.00385.
`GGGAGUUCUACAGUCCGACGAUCUCCUGUGCUACACAUCGUAUGUACCGAAUCGGGAAAAAGGGAAAAAGGGAAAAAAAGGGAAAGUAUUAUGUUACGCCGUUCGGAUCUGCAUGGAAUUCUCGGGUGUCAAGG` has a log2 enrichment of 0.489.
The log2 enrichment of `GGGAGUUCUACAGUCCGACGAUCGUCCUGUGCUACACAUCGUAUGUACCGAAUCAAACCCCCAAAUUUAAAUUUUUUUAAAAAAGUAUUAUGUUACGCCGUUCGGAUCUGCACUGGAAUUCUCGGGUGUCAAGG` is reported as 0.712.
`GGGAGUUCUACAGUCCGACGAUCUCAAGUCCUGUGCUACACAUCGUAUGUACCGAAUCGGAAAAGGAAAAGGAAAAGGAAAGUAUUAUGUUACGCCGUUCGGAUCUGCACUUCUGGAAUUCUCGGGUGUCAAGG` gave a log2 enrichment of -0.305.
For `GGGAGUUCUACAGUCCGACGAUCUAACUUUAGAGGAGGAUCUGAUGGAUAUGGCAGUGGACGUGGAUUUGGGCAUGGCUAUAAUGGGUAUGGAGGAGGACCUGGAGGUGGCAAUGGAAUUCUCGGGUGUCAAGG`, the log2 enrichment was -0.592.

Study 3 — method: protein binding microarray; molecule type: double-stranded DNA, one strand shown; medium: in vitro; tested at: not given; baseline: not given; direction: higher = stronger binding
Target: Histone acetyltransferase KAT6A, both winged helices, GST fusion (KAT6A, Homo sapiens, UniProt Q92794, residues 1-181)
Setting: 8-mer, flanks averaged, mean of 2 arrays, mostly near background
Residues (chain): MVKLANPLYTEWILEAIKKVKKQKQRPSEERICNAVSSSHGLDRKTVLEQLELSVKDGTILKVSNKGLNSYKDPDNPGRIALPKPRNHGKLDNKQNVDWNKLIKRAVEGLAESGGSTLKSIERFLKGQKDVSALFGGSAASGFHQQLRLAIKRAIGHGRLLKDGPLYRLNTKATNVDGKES
The E-score of `GTTCGACA` is reported as -0.0885.
For `ACCGACGG`, the E-score was 0.361.
With `CATCATAG` the E-score was -0.22.
The E-score of `CACGACGC` is reported as 0.143.
`CTTGAAAG` has an E-score of -0.14.
`GGTCTGAC` has an E-score of 0.0103.
The E-score of `CGTCAGTC` is reported as 0.0624.
With `CAGTACGA` the E-score was -0.0915.
`CGGCAGCC` has an E-score of 0.262.
The E-score of `CATACCTC` is reported as -0.139.
`CGGGTCTC` has an E-score of 0.181.
For `TCCCATCA`, the E-score was -0.144.
`CTCGCGCA` gave an E-score of 0.289.
`ATCGCTCA` gave an E-score of 0.0896.
`ACGCCTCG` has an E-score of 0.165.
With `AAGTTAAG` the E-score was -0.173.
For `ATTATAGA`, the E-score was 0.0272.
`CTTACACA` gave an E-score of -0.0969.
`TCGGGAGA` has an E-score of -0.00248.
`GACAGACA` gave an E-score of 0.0233.
The E-score of `GGACGAAC` is reported as 0.254.

Study 4 — method: RNA Bind-n-Seq; molecule type: RNA; medium: in vitro; tested at: 100 nM; baseline: input RNA pool; direction: higher = stronger binding
Target: RING finger protein unkempt homolog, zinc fingers 1-6, SBP tag (UNK, Homo sapiens, UniProt Q9C0B0, residues 30-357)
Chain of UniProt Q9C0B0 (30-357, looked up): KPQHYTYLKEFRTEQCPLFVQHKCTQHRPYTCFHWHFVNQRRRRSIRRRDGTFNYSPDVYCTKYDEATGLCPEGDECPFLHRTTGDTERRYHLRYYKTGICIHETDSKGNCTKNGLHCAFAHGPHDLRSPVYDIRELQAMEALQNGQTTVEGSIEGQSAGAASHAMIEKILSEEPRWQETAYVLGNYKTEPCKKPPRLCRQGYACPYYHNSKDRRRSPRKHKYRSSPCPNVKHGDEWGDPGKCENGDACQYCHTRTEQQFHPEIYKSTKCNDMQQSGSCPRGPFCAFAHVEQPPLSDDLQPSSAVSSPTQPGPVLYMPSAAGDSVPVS
Setting: RNA with constant flanks, vertebrate orthologous sites, ends assumed
With `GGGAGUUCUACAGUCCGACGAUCGAAGACUUUGUGUGCCAUAUUACCCCAAAAAACAUAAAGCUACUUUUUUACUUGCAUAUUUUUCAAAGUACCUGAAAAAUGGUUUUUCUCCUUUCUAAUGGUCAAAAGAAGGUACAUUUCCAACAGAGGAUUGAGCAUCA` the bound/input enrichment was 0.522 ratio.
The bound/input enrichment of `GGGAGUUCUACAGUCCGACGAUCUGCGAACUCUUGCAGUCUUAGAUGUUAUACAAAAAUAUGUAUCUGAAUUGUAAGAGUUGUUAGCACAGGUUUUUUUUUUUUUUUUAAGCACUUGUUUUGGGUACAAGGCAUUUCUGAAAUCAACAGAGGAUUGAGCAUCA` is reported as 0.502 ratio.
`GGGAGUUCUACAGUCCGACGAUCUUUCGGUUUUGCACAUGACAGUGUUUGUUUUGAGGAUCUUCUGAGGAAGAAGGGGUGCUAUGGUGGUGGUGCCUGGGUUCCUGGCCUCCAGUGCCCCACCCCCUCACCACCACACCUGGCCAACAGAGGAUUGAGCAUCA` gave a bound/input enrichment of 0.332 ratio.
`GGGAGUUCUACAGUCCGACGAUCAAUCAGUAGAAUUACAUAAUACUAAAGUUGCAGUUAAAAGGAUAUCCAAGUAUGUGUUGGUAGUUACUAAAAGAAUUAUAGCUGUUAUUGCCUUGUAUUUAUAGCCCUUGUUUCAGGUUUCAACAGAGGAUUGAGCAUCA` has a bound/input enrichment of 0.645 ratio.
The bound/input enrichment of `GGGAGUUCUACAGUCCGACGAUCCUGUCUUCCAGGUUGGAGCUAGCGGAAAAGUCAUAGGAAUUGAUCACAUUAAAGAGCUAGUAGAUGACUCAAUAAAUAAUGUCAGAAAGGAUGAUCCAAUGCUCUUGUCUUCAGGGAGAGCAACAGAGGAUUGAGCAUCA` is reported as 0.536 ratio.
The bound/input enrichment of `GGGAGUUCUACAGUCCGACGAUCUUACUGUUAAGCACUGUGUUCCAGACCGUGUCUGAUUUUAGUGUAACCUAGGAGAUUUUAUAGUUUUAUUUUAAUGAAAUCCUGCUUGACGCAGAGCAGCGGGGAGAGCAGUGUCCUCCACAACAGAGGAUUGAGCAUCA` is reported as 2.19 ratio.
With `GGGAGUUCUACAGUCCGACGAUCUAAUUUUAGGAUGAAGCUAUUAAAGCAGGUGUCACGAGUGUGGCAAACAGAUGGACUGAACUCUUGUUACUAUAACCUGCUGUCUGUGAAACACAAUCCUUUAUAUAUCAAUAUCACAGUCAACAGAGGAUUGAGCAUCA` the bound/input enrichment was 0.608 ratio.
`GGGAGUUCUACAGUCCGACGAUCUACAGGGAAAGAGCUCACAAACUGAAUGGAAAACUAUUAAAAGAGUUUCUAGUAGUAAGGAAAGAUUAGGACAACUUUACAAAUAAACAAUUACAAAUCAAAGAAAUAGGACAGUAAAACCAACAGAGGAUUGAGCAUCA` gave a bound/input enrichment of 1.24 ratio.
For `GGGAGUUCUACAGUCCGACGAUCCAGGAAUGGCCCCAAUCCCACCUCUGUUUAUUCUGUAAACUACAACCUGUAAAUAACGUUUAGGAUUCCUAUUGUAUCAAAAUUAAUUUUUAUGAAAUAAAUUAUAUUUCCUAGUCUAAUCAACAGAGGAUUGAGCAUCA`, the bound/input enrichment was 0.756 ratio.
For `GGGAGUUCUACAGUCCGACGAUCAAUAUUGAAAAGUAUUAAAGAAACAUUUUUGUCUUCCUUUACCUGUUGUCCCCUAAUACCUAGUCUACUUUUUAAAUUUUCAGACUUCAUUACUCUUUGAAUUGAUAAUUCCAGUUUUCACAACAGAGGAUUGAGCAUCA`, the bound/input enrichment was 0.803 ratio.
`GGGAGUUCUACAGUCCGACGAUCUUACAGUCAUUGAUGGACUCUAUUUUUUUAUUAUUACUUGGACCUUGGUCGUUUUUAUACUAGCAAAAAUGUCUUGUUUUAAUUUGUGUUUUUUUGGGGGGUGGGGGUGGGAGGGAUUGACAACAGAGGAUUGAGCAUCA` has a bound/input enrichment of 2.37 ratio.

Repeated from above (study 3):
`ATCGCTCA` gave an E-score of 0.0896.
The E-score of `GTTCGACA` is reported as -0.0885.
For `TCCCATCA`, the E-score was -0.144.
The E-score of `CACGACGC` is reported as 0.143.
`TCGGGAGA` has an E-score of -0.00248.
With `CAGTACGA` the E-score was -0.0915.
For `ATTATAGA`, the E-score was 0.0272.
`GACAGACA` gave an E-score of 0.0233.
